{"data": "Measured values of several laboratories", "note": "Numbered parts are unrelated; each lists some results of a single study. Changes are numbered by the printed parent chain."}
{"data": "Study 1", "target": "CCND3, cyclin fold, Cln2 fusion (human)", "technique": "yeast growth competition, sequencing", "sample": "yeast", "setting": "weak parent motif", "reference": "not given", "reading": "higher = stronger binding", "starting sequence": "WEE1 docking peptide (human); HKTFRKLRLFDTP"}
{"Variant": "HKTFRKLRLFITP [D11I]", "normalised enrichment score": 0.183}
{"Variant": "HKTFRKLNLFDTP [R8N]", "normalised enrichment score": 0.0812}
{"Variant": "DKTFRKLRLFDTP [H1D]", "normalised enrichment score": 0.131}
{"Variant": "HWTFRKLRLFDTP [K2W]", "normalised enrichment score": 0.173}
{"Variant": "HKTFRKLRQFDTP [L9Q]", "normalised enrichment score": 0.238}
{"Variant": "HKMFRKLRLFDTP [T3M]", "normalised enrichment score": 0.0349}
{"Variant": "HKTFRKERLFDTP [L7E]", "normalised enrichment score": 0.108}
{"Variant": "HKTFRKLRKFDTP [L9K]", "normalised enrichment score": 0.21}
{"Variant": "HKTFRKLRCFDTP [L9C]", "normalised enrichment score": 0.103}
{"Variant": "HKTFRKLRLHDTP [F10H]", "normalised enrichment score": 0.086}
{"Variant": "HKTFRKLRLFQTP [D11Q]", "normalised enrichment score": 0.269}
{"Variant": "HKTIRKLRLFDTP [F4I]", "normalised enrichment score": 0.0355}
{"Variant": "HKTFRKLELFDTP [R8E]", "normalised enrichment score": 0.158}
{"Variant": "HKTFRQLRLFDTP [K6Q]", "normalised enrichment score": 0.124}
{"Variant": "HKTFRKLFLFDTP [R8F]", "normalised enrichment score": -0.0357}
{"Variant": "HKTFQKLRLFDTP [R5Q]", "normalised enrichment score": 0.0681}
{"Variant": "HKTFRKLRLFDFP [T12F]", "normalised enrichment score": 0.164}
{"Variant": "CKTFRKLRLFDTP [H1C]", "normalised enrichment score": 0.114}
{"Variant": "HKTFRKLRLFDTW [P13W]", "normalised enrichment score": 0.129}
{"Variant": "HKTFCKLRLFDTP [R5C]", "normalised enrichment score": 0.00388}
{"Variant": "HKWFRKLRLFDTP [T3W]", "normalised enrichment score": 0.0819}
{"Variant": "HKVFRKLRLFDTP [T3V]", "normalised enrichment score": 0.231}
{"data": "Study 2", "target": "Histone acetyltransferase KAT6A, winged helix 2, GST fusion (KAT6A, Homo sapiens, UniProt Q92794, residues 85-181)", "technique": "protein binding microarray", "molecule type": "double-stranded DNA, one strand shown", "sample": "in vitro", "concentration": "not given", "setting": "8-mer, flanks averaged, mean of 2 arrays, mostly near background", "reference": "not given", "reading": "higher = stronger binding", "Target sequence (chain)": "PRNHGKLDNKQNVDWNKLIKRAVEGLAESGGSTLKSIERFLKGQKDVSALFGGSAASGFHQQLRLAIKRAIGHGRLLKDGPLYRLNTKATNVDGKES"}
{"Strand": "CACAAGAC", "E-score": -0.0376}
{"Strand": "GCTCTAAC", "E-score": -0.0787}
{"Strand": "GGTCACTA", "E-score": 0.0742}
{"Strand": "CCATGTTC", "E-score": -0.0498}
{"Strand": "AGTGCGAC", "E-score": 0.0911}
{"Strand": "AAAGATAT", "E-score": 0.0769}
{"Strand": "TGATAGAA", "E-score": -0.00968}
{"Strand": "AAGAACGC", "E-score": 0.0973}
{"Strand": "CACCCGCC", "E-score": 0.195}
{"Strand": "CTATGATA", "E-score": 0.137}
{"Strand": "CCTTGAGA", "E-score": 0.0286}
{"Strand": "AATGTTGA", "E-score": -0.12}
{"Strand": "AGACACTG", "E-score": -0.0313}
{"Strand": "GAATCGCC", "E-score": 0.0504}
{"Strand": "GATACGGA", "E-score": -0.0824}
{"Strand": "CGCTACGC", "E-score": 0.116}
{"Strand": "CTATCAGC", "E-score": 0.1}
{"Strand": "ACCTAGCA", "E-score": -0.102}
{"Strand": "TGCGCCAA", "E-score": 0.0358}
{"Strand": "ACACAGCG", "E-score": 0.231}
{"Strand": "ATCTAAAG", "E-score": 0.1}
{"Strand": "CGCCTACG", "E-score": 0.046}
{"Strand": "GGATTCCA", "E-score": 0.00984}
{"Strand": "TTGGCCAA", "E-score": -0.161}
{"Strand": "ATATACAG", "E-score": -0.0139}
{"data": "Study 3", "target": "Sal-like protein 4, full length isoform A (SALL4, Homo sapiens, UniProt Q9UJQ4, residues 1-1053)", "technique": "universal PBM", "molecule type": "double-stranded DNA, one strand shown", "sample": "in vitro", "concentration": "600 nM", "setting": "8-mer, flanks averaged, mean of replicates", "reading": "higher = stronger binding", "sequence of UniProt Q9UJQ4 (whole entry, looked up)": "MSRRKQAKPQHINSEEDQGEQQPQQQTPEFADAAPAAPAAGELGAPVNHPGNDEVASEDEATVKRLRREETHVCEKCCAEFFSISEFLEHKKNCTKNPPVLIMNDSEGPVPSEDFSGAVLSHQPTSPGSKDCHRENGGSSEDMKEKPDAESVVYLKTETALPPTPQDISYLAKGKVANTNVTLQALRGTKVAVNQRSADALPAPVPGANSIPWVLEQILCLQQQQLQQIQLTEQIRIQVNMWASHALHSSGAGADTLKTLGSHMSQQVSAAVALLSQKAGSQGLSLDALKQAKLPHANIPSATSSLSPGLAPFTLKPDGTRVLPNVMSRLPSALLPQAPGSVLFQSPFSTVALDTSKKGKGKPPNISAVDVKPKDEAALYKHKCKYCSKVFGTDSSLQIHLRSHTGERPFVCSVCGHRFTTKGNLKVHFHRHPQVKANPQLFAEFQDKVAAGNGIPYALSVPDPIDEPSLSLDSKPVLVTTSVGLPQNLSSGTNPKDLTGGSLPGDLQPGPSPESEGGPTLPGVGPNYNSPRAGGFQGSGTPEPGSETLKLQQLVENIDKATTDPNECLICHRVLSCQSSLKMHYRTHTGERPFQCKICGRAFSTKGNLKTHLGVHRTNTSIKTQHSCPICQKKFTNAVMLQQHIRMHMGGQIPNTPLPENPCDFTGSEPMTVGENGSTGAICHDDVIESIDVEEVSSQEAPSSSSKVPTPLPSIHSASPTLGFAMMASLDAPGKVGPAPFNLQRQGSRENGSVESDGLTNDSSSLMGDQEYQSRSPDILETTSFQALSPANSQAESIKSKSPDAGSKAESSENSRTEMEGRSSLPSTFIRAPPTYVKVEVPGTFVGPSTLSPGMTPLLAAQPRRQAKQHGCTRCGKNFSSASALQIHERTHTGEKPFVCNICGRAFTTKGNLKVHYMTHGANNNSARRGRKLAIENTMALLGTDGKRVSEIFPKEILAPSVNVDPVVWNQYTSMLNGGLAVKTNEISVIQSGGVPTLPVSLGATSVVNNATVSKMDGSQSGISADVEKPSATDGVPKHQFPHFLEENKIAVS"}
{"Strand": "TCCCAAGA", "E-score": -0.00302}
{"Strand": "CCGGCAGC", "E-score": -0.281}
{"Strand": "ACAAATTC", "E-score": 0.244}
{"Strand": "AGCTCTAT", "E-score": -0.0076}
{"Strand": "CGGCCGGA", "E-score": -0.231}
{"Strand": "CCATGACC", "E-score": -0.278}
{"Strand": "ACTTTGAT", "E-score": 0.0779}
{"Strand": "ACAGATGT", "E-score": 0.0898}
{"Strand": "CCGGGCGC", "E-score": -0.406}
{"Strand": "CCCATGCA", "E-score": -0.00936}
{"Strand": "ATCCGACC", "E-score": -0.158}
{"Strand": "GGGGCATA", "E-score": -0.0142}
{"Strand": "GCTTGCTA", "E-score": -0.0992}
{"Strand": "GCACAACC", "E-score": -0.228}
{"Strand": "CGCAAAGC", "E-score": -0.0961}
{"Strand": "CTCAGTCA", "E-score": -0.121}
{"Strand": "AAGGGCTA", "E-score": -0.118}
{"Strand": "GACCAGAC", "E-score": -0.222}
{"Strand": "ATTGACTG", "E-score": 0.0366}
{"Strand": "ATACAGAG", "E-score": 0.0652}
{"Strand": "AGTCTCTC", "E-score": -0.137}
{"Strand": "CAACAGGA", "E-score": -0.137}
{"Strand": "GGCTGTTA", "E-score": 0.0765}
{"Strand": "ACATTACC", "E-score": 0.0446}
{"Strand": "GGCGGCGA", "E-score": -0.327}
{"data": "Study 4", "target": "RNA binding protein fox-1 homolog 2, RRM domain, GST-SBP tag (RBFOX2, Homo sapiens, UniProt O43251-10, residues 100-194)", "technique": "RNA Bind-n-Seq", "molecule type": "RNA", "sample": "in vitro", "concentration": "365 nM", "setting": "natural RNA segment, single round, ends assumed", "reference": "no-protein control", "reading": "higher = stronger binding", "all sequences stand within": "GGGAGUUCUACAGUCCGACGAUC … UGGAAUUCUCGGGUGCCAA", "Construct (chain)": "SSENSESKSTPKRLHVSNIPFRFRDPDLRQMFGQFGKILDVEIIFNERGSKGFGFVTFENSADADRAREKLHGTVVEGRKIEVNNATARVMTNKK"}
{"Strand": "UUGGUUUUUUAAAAUCUGUACAGCAAGAGCAACUUUUUCUGUCAAAUAAAAAUGAGAAAUGCAGGAACUGGGUCUGUAGACUGUUUAUUAAAGGUGUGUUAAGGGGGCAG", "RBNS enrichment (R)": 1.4}
{"Strand": "CUGAGCAUUCUUACACUUGAUGGAAAAAUUAAAGCCUAGAAGGACCAAAGAUGUCCUUAUUGACAAAGCUGGCCUUUGUCACCUGAUUCCAGUAUUCUCACUGUCUUCUA", "RBNS enrichment (R)": 0.381}
{"Strand": "UUUUCUGGGUGGUGGUGGCAAGGGUCUAUGUCAGGGUUCAAGUUACUAAAGGUUUUACUGUCAUAAUUUAAAGGGGACUCUUCACGACCCGUCACAAUAAACCAUUCUCA", "RBNS enrichment (R)": 0.373}
{"Strand": "AAGAGACCCAGCGGCAGAGCACCUUUUACAUUUUGGACCGUUCAUGAAUGGGCAAUGUUGUGUUGAUACGCAGCCGAGUUCUACGUUAUGUGCUGUGACUGUGCAGCUGG", "RBNS enrichment (R)": 0.755}
{"Strand": "CUUGAACAAAAUCAGGUCCCCUGGGGUGGAAGUCACAGCCAAGCGCCUUUUUAAGACUUGAGUGGUGGCACUAGCCAGUGUCCCCCAUGGCUGGGCAGUUGAGCACCUGC", "RBNS enrichment (R)": 0.233}
{"Strand": "UUACCUUCUGCUUUCUCUUUGUCCACUUACGCAGUAGGUGACUGGCAUGUGCCACAGAGCAGGCCCUGCCUCACUGUCUGCUGGUCAGUUCUGGGUUCACUUAAUGGCUU", "RBNS enrichment (R)": 0.784}
{"Strand": "AGCACCUGUGGUGGCUGCAAGUGGAAUCCUGGGGCCAAGGCUGCAGCUCAGGGCAAUGGCAGACCAGAUUGUGGGUCUCCAGCCUUGCAUGGCUGGCAGCCAGAUCCUGG", "RBNS enrichment (R)": 1.07}
{"Strand": "CCCUGGUGGCCGCUCCAACAUCACCAGCCUCGGUUGAACGUGGAUGCGCGGAGGAGCUAGCCUGAAGGAUUCUGGGAAUCAUGUCCAUCCCUUUUCCUGUCAGUGUUUUU", "RBNS enrichment (R)": 0.368}
{"data": "Study 5", "target": "Ras GTPase-activating protein-binding protein 1, full length (G3BP1, Homo sapiens, UniProt Q13283)", "technique": "RNA Bind-n-Seq", "molecule type": "RNA", "sample": "in vitro", "concentration": "200 nM", "setting": "whole 134-nt RNA, ends assumed", "with": "150 mM KCl", "reference": "input library", "reading": "higher = stronger binding", "all sequences stand within": "GGGAGUUCUACAGUCCGACGAUC … UGGAAUUCUCGGGUGUCAAGG", "sequence of UniProt Q13283 (whole entry, looked up)": "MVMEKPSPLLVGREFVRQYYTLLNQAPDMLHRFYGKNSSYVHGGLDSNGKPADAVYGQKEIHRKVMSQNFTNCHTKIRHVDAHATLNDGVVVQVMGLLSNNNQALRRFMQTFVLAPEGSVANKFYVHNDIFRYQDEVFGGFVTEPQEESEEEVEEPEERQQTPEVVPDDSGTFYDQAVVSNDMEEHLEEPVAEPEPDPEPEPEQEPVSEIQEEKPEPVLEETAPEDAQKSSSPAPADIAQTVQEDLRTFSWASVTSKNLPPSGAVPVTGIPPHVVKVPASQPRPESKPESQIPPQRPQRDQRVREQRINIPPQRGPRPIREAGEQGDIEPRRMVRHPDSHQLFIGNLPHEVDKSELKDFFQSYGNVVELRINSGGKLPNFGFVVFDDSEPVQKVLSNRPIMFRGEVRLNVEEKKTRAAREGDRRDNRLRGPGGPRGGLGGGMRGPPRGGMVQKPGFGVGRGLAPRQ"}
{"Strand": "CACAGACAACACGCACCCACACAGACACAGAGGGAAGGGGUUGGGAUGGGGACAGGGUGCACAGCAGGGCGCGGUAGGACCCCAGCCCCU", "log2 enrichment": 1.78}
{"Strand": "CACAGACAACACGCACCAAAACAGACACAGAGGGAAGGGGUUGGGAUGGGGACAGGGUGCACAGCAGGGCGGGGUAGGACCCCAGCCCCU", "log2 enrichment": 1.78}
{"Strand": "CCUGUGCUACACAUCGUAUGUACCGAAUCGGCCCCCCCGGGGCCCCCCCGGGCCCCCCCGGAAAGUAUUAUGUUACGCCGUUCGGAUCUG", "log2 enrichment": -0.445}
{"Strand": "CACAGACAACACGCACCCACACAGACACAGAGGGAAGGGGUAAAGAUGGGGACAGGGUGCACAGCAGGGCGGGGUAGGACCCCAGCCCCU", "log2 enrichment": 1.26}
{"Strand": "UCAAGUCCUGUGCUACACAUCGUAUGUACCGAAUCGGAGGUUUGGAAAAAAAGGAAAGUAUUAUGUUACGCCGUUCGGAUCUGCACUUCC", "log2 enrichment": -1.18}
{"Strand": "CACAGACAACACGCACCCACACAGACACAGAGGGAAGGGGUUGGGAUGGGAAAAGGGUGCACAGCAGGGCGGGGUAGGACCCCAGCCCCU", "log2 enrichment": 1.99}
{"Strand": "GCAGGAAGUAAAAACAAAUGGAAAUGCUUCGGAUAGUGGCAGGGGUGGGGGUUGCUAAGGAAAGGGUGGGAUGGGAAAGGGUAAAGAGUU", "log2 enrichment": 0.717}
{"Strand": "CACAGACAACACGCACCCACACAGACACAGAGGGAAGGGGUUGGGAUGGGGACAGGGUGCACAGCAGGGCGGGGUAGGACCCUAGCCCCU", "log2 enrichment": 1.78}
{"Strand": "CAAGUCCUGUGCUACACAUCGUAUGUACCGAAUCGGGGAAAGGAAAGGAAAGGGGAAAGUAUUAUGUUACGCCGUUCGGAUCUGCACUUC", "log2 enrichment": -0.356}
{"note": "For quick reference, copied from above (study 3):"}
{"Strand": "CCATGACC", "E-score": -0.278}
{"Strand": "ACTTTGAT", "E-score": 0.0779}
{"Strand": "ACAGATGT", "E-score": 0.0898}
{"Strand": "CCGGGCGC", "E-score": -0.406}
{"Strand": "CCCATGCA", "E-score": -0.00936}
{"Strand": "ATCCGACC", "E-score": -0.158}
{"Strand": "GGGGCATA", "E-score": -0.0142}
{"Strand": "GCTTGCTA", "E-score": -0.0992}
{"Strand": "GCACAACC", "E-score": -0.228}
{"Strand": "CGCAAAGC", "E-score": -0.0961}
{"Strand": "CTCAGTCA", "E-score": -0.121}
{"Strand": "AAGGGCTA", "E-score": -0.118}
{"Strand": "GACCAGAC", "E-score": -0.222}
